Experimental data gathered from unrelated publications.
Protocols differ between the studies behind these lines. ± marks the error that the study gave.
Organism: Klebsiella pneumoniae

Compound | test | system | setting | MIC
COc1ccc2ccc3c(c2c1)C=[N+]1C2CCCCC2[N+]2=Cc4ccc(F)cc4[O][Au-]21[O]3.F[P-](F)(F)(F)(F)F (stereo not shown) | bacterial growth, broth microdilution | carbapenem-resistant clinical isolate | 24 h | 10 µM
CC(C)C[C@@H]1NC(=O)[C@@H](CC(C)C)NC(=O)[C@H](CCN)NC(=O)[C@@H](NC(=O)[C@H](CCN)NC(=O)[C@@H](N)[C@@H](C)O)CCNC(=O)[C@H]([C@@H](C)O)NC(=O)[C@H](CCN)NC(=O)[C@H](CCN)NC1=O | broth microdilution | NDM-1, CAMHB with polysorbate-80 | 16 h | > 64 µg/mL
CCCCCCCCCCCCCC(=O)N[C@@H]1CCNC(=O)[C@H](CC(=O)O)NC(=O)[C@H](C(C)C)NC(=O)[C@@H](Cc2ccc(O)cc2)NC(=O)[C@H](CCN)NC(=O)[C@H](CC(C)C)NC(=O)[C@@H](Cc2ccccc2)NC(=O)[C@H](CCN)NC(=O)[C@H](CC(C)C)NC(=O)[C@H](CCN)NC(=O)[C@H]([C@@H](C)O)NC1=O | broth microdilution | BNCC 186113 |  | > 64 µg/mL
Cc1cc(N)c2cc(NC(=O)c3ccc4c(-c5ccccc5O)cccc4c3)ccc2n1 |  | ATCC 13883 |  | 100 µM
CC(C)C[C@H](NC(=O)[C@H](C)NC(=O)CNC(=O)[C@@H](NC(=O)[C@@H](NC(=O)[C@H](CCCCN)NC(=O)[C@H](CCCCN)NC(=O)[C@H](CC(C)C)NC(=O)[C@H](CC(C)C)NC(=O)[C@H](CCCCN)NC(=O)[C@H](CC(C)C)NC(=O)[C@H](CC(C)C)NC(=O)[C@@H](N)CCCCN)C(C)C)C(C)C)C(=O)NCC(N)=O |  | ATCC 700603, CAMHB | 18 h, 37 °C | 22 µM
CC(C)[C@H](NC(=O)[C@H](CCCCN)NC(=O)[C@H](CCCNC(=N)N)NC(=O)CNC(=O)[C@H](C)NC(=O)[C@H](CC(N)=O)NC(=O)[C@H](CCCNC(=N)N)NC(=O)[C@@H](NC(=O)[C@H](CCCCN)NC(=O)[C@H](CC(=O)O)NC(=O)[C@@H](NC(=O)[C@@H](NC(=O)[C@H](CCCNC(=N)N)NC(=O)[C@H](CCCNC(=N)N)NC(=O)[C@H](Cc1c[nH]c2ccccc12)NC(=O)[C@H](Cc1c[nH]c2ccccc12)NC(=O)CN)[C@@H](C)O)C(C)C)C(C)C)C(=O)O |  | clinical strain | 18 h, 37 °C | > 256 µg/mL
COc1ccc2ccc3c(c2c1)C=[N+]1C2CCCCC2[N+]2=Cc4cc(C(C)(C)C)ccc4[O][Au-]21[O]3.F[P-](F)(F)(F)(F)F (stereo not shown) | bacterial growth, broth microdilution | carbapenem-resistant | 24 h | 10 µM
CC(C)[C@H](NC(=O)[C@H](CCCCN)NC(=O)[C@H](CCCNC(=N)N)NC(=O)[C@@H](NC(=O)[C@H](C)NC(=O)[C@H](CC(N)=O)NC(=O)[C@H](CCCNC(=N)N)NC(=O)[C@@H](NC(=O)[C@H](CCCCN)NC(=O)[C@H](CCCCN)NC(=O)[C@@H](NC(=O)[C@@H](NC(=O)[C@H](CCCNC(=N)N)NC(=O)[C@H](CCCNC(=N)N)NC(=O)[C@H](Cc1c[nH]c2ccccc12)NC(=O)[C@H](Cc1c[nH]c2ccccc12)NC(=O)CN)[C@@H](C)O)C(C)C)C(C)C)C(C)C)C(=O)O |  | ATCC 10031 | 18 h, 37 °C | 32 µg/mL
CN[C@H](CC(C)C)C(=O)N[C@H]1C(=O)N[C@@H](CC(N)=O)C(=O)N[C@H]2C(=O)N[C@H]3C(=O)N[C@H](C(=O)N[C@H](C(=O)O)c4cc(O)cc(O)c4-c4cc3ccc4O)[C@H](O)c3ccc(c(Cl)c3)Oc3cc2cc(c3O[C@@H]2O[C@H](CO)[C@@H](O)[C@H](O)[C@H]2O[C@H]2C[C@](C)(NCc3ccc(C(=O)OCCCCCCN(Cc4ccccn4)Cc4ccccn4)cc3)[C@H](O)[C@H](C)O2)Oc2ccc(cc2Cl)[C@H]1O |  | BAA-2146 NDM-1 | compound alone | > 50 µM
COc1ccc2c(c1)C=[N+]1C3CCCCC3[N+]3=Cc4c(ccc5ccc(OC)cc45)[O][Au-]13[O]2.F[P-](F)(F)(F)(F)F (stereo not shown) | bacterial growth, broth microdilution | carbapenem-resistant | 24 h | > 20 µM
CC(C)C[C@H](NC(=O)[C@H](Cc1ccc(O)cc1)NC(=O)[C@@H]1CCCN1C(=O)[C@H](CCCNC(=N)N)NC(=O)[C@@H]1CCCN1C(=O)[C@H](CCCCN)NC(=O)[C@H](CC(=O)O)NC(=O)[C@@H]1CCCN1C(=O)[C@H](CCCNC(=N)N)NC(=O)C1(N)CCCCC1)C(=O)N1CCC[C@H]1C(=O)N[C@@H](CCCNC(=N)N)C(=O)N1CCC[C@H]1C(=O)N[C@@H](CCCNC(=N)N)C(=O)N1CCC[C@H]1C(=O)N1CCC[C@H]1C(=O)N[C@@H](CCCNC(=N)N)C(=O)N1CCC[C@H]1C(=O)N[C@H](C(=O)N[C@@H](CCCNC(=N)N)C(=O)N[C@@H](CSCc1ccccc1CSC[C@H](NC(=O)[C@H](CCCNC(=N)N)NC(=O)[C@@H](NC(=O)[C@@H]1CCCN1C(=O)[C@H](CCCNC(=N)N)NC(=O)[C@@H]1CCCN1C(=O)[C@@H]1CCCN1C(=O)[C@H](CCCNC(=N)N)NC(=O)[C@@H]1CCCN1C(=O)[C@H](CCCNC(=N)N)NC(=O)[C@@H]1CCCN1C(=O)[C@H](CC(C)C)NC(=O)[C@H](Cc1ccc(O)cc1)NC(=O)[C@@H]1CCCN1C(=O)[C@H](CCCNC(=N)N)NC(=O)[C@@H]1CCCN1C(=O)[C@H](CCCCN)NC(=O)[C@H](CC(=O)O)NC(=O)[C@@H]1CCCN1C(=O)[C@H](CCCNC(=N)N)NC(=O)C1(N)CCCCC1)C(C)C)C(=O)NN)C(=O)NN)C(C)C | bacterial growth | ATCC 13883, 100% Mueller-Hinton broth | 90 min, 37 °C, strain ATCC 13883 | 3.7 ± 0.6 µg/mL
COc1ccc2ccc3c(c2c1)C=[N+]1C2CCCCC2[N+]2=Cc4cccc(OC)c4[O][Au-]21[O]3.F[P-](F)(F)(F)(F)F (stereo not shown) | bacterial growth, broth microdilution | carbapenem-resistant clinical isolate | 24 h | 10 µM
CC[C@@H](C)[C@@H](NC(=O)[C@@H](C)NC(=O)[C@H](NC(=O)[C@@H](CC(=O)O)NC(=O)[C@@H](CCCCN)NC(=O)[C@@H](CO)NC(=O)[C@H](NC(=O)[C@@H](CC(N)=O)NC(=O)[C@@H](C)NC(=O)[C@H](NC(=O)[C@@H](CCC(=O)O)NC(=O)[C@@H](CCCCN)NC(=O)[C@H](NC(=O)[C@H](NC(=O)[C@@H](Cc1c[nH]cn1)NC(=O)[C@@H](CCCCN)NC(=O)[C@H](NC(=O)[C@@H](CCCCN)NC(=O)[C@@H](CCCCN)NC(=O)[C@H](NC(=O)[C@@H](CC(C)C)NC(=O)[C@@H](CCCCN)NC(=O)[C@@H](CC(N)=O)NC(=O)[C@@H](Cc1ccccc1)NC(=O)[C@@H](CCCNC(=N)N)NC(=O)[C@@H](CCCCN)NC(=O)[C@@H](CCCNC(=N)N)NC(=O)[C@@H](Cc1ccccc1)NC(=O)CN)C(C)C)C(C)C)[C@H](C)O)[C@H](C)CC)[C@H](C)O)C(C)C)C(C)C)C(=O)N[C@@H](C(=O)N[C@H](C)C(=O)NCC(=O)N[C@H](CO)C(=O)NCC(=O)N[C@@H](C(=O)N[C@H](C)C(=O)N[C@@H](C(=O)NCC(=O)N[C@H](C)C(=O)N[C@H](C)C(=O)N[C@H](CCSC)C(N)=O)C(C)C)C(C)C)C(C)C |  | isolate RKI 93/10, CAMHB |  | 16 µg/mL

Repeated from above:
Compound | test | system | setting | MIC
CC(C)[C@H](NC(=O)[C@H](CCCCN)NC(=O)[C@H](CCCNC(=N)N)NC(=O)CNC(=O)[C@H](C)NC(=O)[C@H](CC(N)=O)NC(=O)[C@H](CCCNC(=N)N)NC(=O)[C@@H](NC(=O)[C@H](CCCCN)NC(=O)[C@H](CC(=O)O)NC(=O)[C@@H](NC(=O)[C@@H](NC(=O)[C@H](CCCNC(=N)N)NC(=O)[C@H](CCCNC(=N)N)NC(=O)[C@H](Cc1c[nH]c2ccccc12)NC(=O)[C@H](Cc1c[nH]c2ccccc12)NC(=O)CN)[C@@H](C)O)C(C)C)C(C)C)C(=O)O |  | clinical strain | 18 h, 37 °C | > 256 µg/mL
